Measured values gathered from unrelated publications.
Compare with care: the assays were run in different laboratories. ± gives the spread as reported. Values after ≈ are worked out from the molar mass of the structure shown.
Organism: Bacillus subtilis

Structure (SMILES)	test	test system	conditions	measurement	value
COc1ccccc1N1CCN(Cn2nc(C34CC5CC(CC(C5)C3)C4)n(-c3ccccc3)c2=S)CC1	–	IFO 3007	200 µg/disc, 24 h, 37 °C	inhibition zone diameter	21 mm
CCc1ccc(NC(=O)CSc2nc3ccccc3c(=O)n2-c2ccc(S(N)(=O)=O)cc2)cc1	microbial growth, well diffusion	ATCC6633	500 µg/mL, 24 h	inhibition zone	28 mm
CCOC(=O)C1=C(C)NC2=C(C(=O)CC(C)(C)C2)C1c1ccc(OCC(=O)NN=Cc2cccc([N+](=O)[O-])c2)cc1OCC(=O)NN=Cc1cccc([N+](=O)[O-])c1 (stereo not drawn)	–	ATCC 6337	concentration not given, 24 h, 37 °C	inhibition zone diameter	7.3 ± 0.3 mm
O=C(NC(=S)Nc1nc(-c2ccccc2)cc(-c2ccc(Cl)cc2)n1)c1ccc(Cl)cc1	–	–	concentration not given, 24 h, 37 °C	inhibition zone	8 mm
Cc1cc([N+](=O)[O-])ccc1NC(=O)CSc1nc2ccccc2c(=O)n1-c1ccc(S(N)(=O)=O)cc1	microbial killing	ATCC6633	24 h	MBC	0.62 µg/mL (≈ 1.18 µM)
C=C(CO)C(=O)O[C@H]1CC(=C)[C@@H]2C[C@H](O)[C@](O)(CCl)[C@@H]2[C@H]2OC(=O)C(=C)C12 (stereo partly drawn)	–	–	concentration not given	inhibition zone	12 ± 1.6 mm
CCOC(=O)c1cnc(N/N=C/c2c(-c3ccc(C#N)cc3)nc3ncccn23)s1	microbial growth, well diffusion	ATCC6051	100 µg/mL	inhibition zone	15 to 20 mm
CCN1CCN(Cn2nc(C34CC5CC(CC(C5)C3)C4)n(-c3ccccc3)c2=S)CC1	–	IFO 3007	200 µg/disc, 24 h, 37 °C	inhibition zone diameter	16 mm
CCOC(=O)c1cnc(N/N=C/c2c(-c3ccc(Br)cc3)nc3ncccn23)s1	microbial growth, well diffusion	ATCC6051	100 µg/mL	inhibition zone	10 mm
CCc1ccccc1NC(=O)CSc1nc2ccccc2c(=O)n1-c1ccc(S(N)(=O)=O)cc1	microbial growth, well diffusion	ATCC6633	500 µg/mL, 24 h	inhibition zone	22 mm
S=c1n(CN2CCN(Cc3ccccc3)CC2)nc(C23CC4CC(CC(C4)C2)C3)n1-c1ccccc1	–	IFO 3007	200 µg/disc, 24 h, 37 °C	inhibition zone diameter	19 mm
NS(=O)(=O)c1ccc(-n2c(SCC(=O)Nc3ccc([N+](=O)[O-])cc3[N+](=O)[O-])nc3ccccc3c2=O)cc1	microbial growth, well diffusion	ATCC6633	500 µg/mL, 24 h	inhibition zone	28 mm
CCOC(=O)c1cnc(N/N=C/c2c(-c3ccc(F)cc3)nc3ncccn23)s1	microbial growth, well diffusion	ATCC6051	100 µg/mL	inhibition zone	15 to 20 mm
CN(C)CCn1nc(C23CC4CC(CC(C4)C2)C3)n(C)c1=S	–	IFO 3007	200 µg/disc, 24 h, 37 °C	inhibition zone diameter	17 mm
CC(C)=CCCC1(C)CC=NO1 (stereo not drawn)	microbial growth	–	–	IC50	> 500 µM

A few entries again:
Structure (SMILES)	test	test system	conditions	measurement	value
CCOC(=O)C1=C(C)NC2=C(C(=O)CC(C)(C)C2)C1c1ccc(OCC(=O)NN=Cc2cccc([N+](=O)[O-])c2)cc1OCC(=O)NN=Cc1cccc([N+](=O)[O-])c1 (stereo not drawn)	–	ATCC 6337	concentration not given, 24 h, 37 °C	inhibition zone diameter	7.3 ± 0.3 mm
CCOC(=O)c1cnc(N/N=C/c2c(-c3ccc(C#N)cc3)nc3ncccn23)s1	microbial growth, well diffusion	ATCC6051	100 µg/mL	inhibition zone	15 to 20 mm
